Results of several laboratories.
Protocols differ between the studies behind these lines.

CO[C@H]1C[C@@H]2CC[C@@H](C)[C@@](O)(O2)C(=O)C(=O)N2CCCC[C@H]2C(=O)O[C@H]([C@H](C)C[C@@H]2CC[C@@H](OC(=O)NCCOCCOCCOCCOCCOCCOCCOCCOCCC(=O)N3CCc4cc(Cn5nc(-c6ccc7oc(N)nc7c6)c6c(N)ncnc65)ccc4C3)[C@H](OC)C2)C[C@@H](O)[C@H](C)/C=C(\C)[C@@H](O)[C@@H](OC)C(=O)[C@H](C)C[C@H](C)/C=C/C=C/C=C/1C  patients with AE (item: treatment-emergent AEs; patients with advanced solid tumours; intravenous, 1.6 mg/3 mg, grade ≥3, weekly): 0%
CC(=O)c1c(C)c2cnc(Nc3ccc(C4CCN(CCS(C)(=O)=O)CC4)cn3)nc2n(C2CCCC2)c1=O  patients with AST increased (HR+/HER2- advanced breast cancer patients; oral, dose not given, grade 3/4,, sample A patients): 1.2%
O=C1Nc2cc3[nH]nc(-c4ccncc4)c3cc2CN1Cc1ccccc1  patients with dyspnoea (CTCAE v4.03; advanced solid tumour patients; intravenous, 4.8 mg/kg, schedules 1/2): 25%
C=CCNc1c(O)cc2c(O)c1C[C@@H](C)C[C@H](OC)[C@H](O)[C@@H](C)/C=C(\C)[C@H](OC(N)=O)[C@@H](OC)/C=C\C=C(/C)C(=O)N2  patients with ALP increase (unresectable or metastatic sarcoma; intravenous, 500 mg/m^2, grade 3-4 lab change): 0%
C[C@@H]1OC(=O)NN=C1c1ccc(-c2ccc(F)cc2)c(C(F)(F)F)c1  patients with platelet count decreased (patients, phase I trial; oral, 5 mg once daily, any grade TEAE): 100%
CN1CC[C@@H](c2c(O)cc(O)c3c(=O)cc(-c4ccc(C(F)(F)F)cc4Cl)oc23)[C@@H]1CO  patients with adverse event (item: Nausea; AML; oral, 200 mg, intermittent dosing): 40%
N[C@@H]1c2ccccc2OC12CCN(c1cnc3c(N4CCCc5ncccc54)n[nH]c3n1)CC2  patients with any TEAE (advanced solid tumour patients; oral, 50 mg once daily): 100%
CCN(CCO)CCCC(C)Nc1ccnc2cc(Cl)ccc12 (stereo not drawn)  patients with adverse event (item: Constipation grade 1; newly diagnosed glioblastoma patients; oral, 200 mg/dose, with radiotherapy and temozolomide): 33%
Nc1nc2cc(-c3ccc4ncc(C(=O)N5CCOCC5)n4c3)ccc2o1  patients with adverse event (item: Anemia; advanced solid tumour patients; dose not given, all grades, all doses): 21%

A few entries again:
CCN(CCO)CCCC(C)Nc1ccnc2cc(Cl)ccc12 (stereo not drawn)  patients with adverse event (item: Constipation grade 1; newly diagnosed glioblastoma patients; oral, 200 mg/dose, with radiotherapy and temozolomide): 33%
